Results collected from several papers.
TDP1: Tyrosyl-DNA phosphodiesterase 1 (TDP1, Homo sapiens, UniProt Q9NUW8)
UniProt Q9NUW8, sequence (whole entry, looked up): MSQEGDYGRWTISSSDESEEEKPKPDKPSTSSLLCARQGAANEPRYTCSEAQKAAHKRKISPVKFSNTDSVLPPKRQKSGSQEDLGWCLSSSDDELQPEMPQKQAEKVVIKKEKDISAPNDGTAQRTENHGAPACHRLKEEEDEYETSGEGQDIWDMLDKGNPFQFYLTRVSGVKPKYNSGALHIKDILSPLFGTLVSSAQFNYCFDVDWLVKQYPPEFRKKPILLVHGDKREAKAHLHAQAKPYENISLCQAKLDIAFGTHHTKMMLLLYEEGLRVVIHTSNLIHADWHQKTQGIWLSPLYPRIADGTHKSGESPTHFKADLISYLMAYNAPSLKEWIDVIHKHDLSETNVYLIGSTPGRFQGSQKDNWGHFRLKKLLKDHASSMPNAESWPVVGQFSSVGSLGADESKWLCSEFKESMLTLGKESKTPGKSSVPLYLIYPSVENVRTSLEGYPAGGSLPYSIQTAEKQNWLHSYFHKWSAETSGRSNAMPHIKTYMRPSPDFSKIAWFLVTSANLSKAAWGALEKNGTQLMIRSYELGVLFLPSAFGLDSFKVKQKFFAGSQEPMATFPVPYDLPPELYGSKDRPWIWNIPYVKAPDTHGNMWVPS

O=C(Oc1cccccc1=O)c1ccccc1  CC50 (HepDES19; cell growth or viability, MTS; 72 h): 98.9 µM
CCCCCCCCCCCC(=O)Oc1c(C)c(OC)c2c(c1C)OC(=O)[C@@H](CCCCCCCCCC)[C@]2(O)/C=C/c1ccccc1 (relative stereo)  IC50 (normal human liver cell line; cytotoxicity, SRB; 72 h): > 50 µM
Cc1cc(O)c(=O)c(O)cc1-c1ccc(C(F)(F)F)cc1  CC50 (HepDES19; cell growth or viability, MTS; 72 h): 6.3 µM
Cn1nc(CSc2ccccc2)c(C=NOCc2ccc3nc(-c4ccccc4)c(Nc4ccc(C(=O)O)cc4)n3c2)c1Cl  inhibition (TDP1; enzyme activity, inhibitor; 100 µM, unpurified compound): -2.3%
COc1ccccc1NC(=O)OC1C(C)C(OC)C=COC2(C)Oc3c(C)c(O)c4c(c3C2=O)C2=NC3(CCN(CC(C)C)CC3)NC2=C(NC(=O)C(C)=CC=CC(C)C(O)C(C)C(O)C1C)C4=O (stereo not drawn)  intracellular/extracellular ratio (THP-1 derived macrophages; 30 min; baseline: intracellular over extracellular): 140
Cc1cc(O)c(=O)c(O)cc1C(=O)c1ccc2ccccc2c1  CC50 (HepDES19; cell growth or viability, MTS; 72 h): 28.5 µM
O=C(Oc1cc(OC(=O)c2cc(O)c(O)c(O)c2)c2ccccc2c1)c1cc(O)c(O)c(O)c1  viability reduction (TZM-bl; MTT; 5 to 20 µM, 48 h): ≤ 20%
COC1C=COC2(C)Oc3c(C)c(O)c4c(c3C2=O)C2=NC3(CCN(CC(C)C)CC3)NC2=C(NC(=O)C(C)=CC=CC(C)C(O)C(C)C(O)C(C)C(OC(=O)Nc2cccnn2)C1C)C4=O (stereo not drawn)  intracellular/extracellular ratio (THP-1 derived macrophages; 30 min; baseline: intracellular over extracellular): 23.1
COc1ccc2ncc(F)c(CC[C@@]3(O)CO[C@@H]4[C@@H](NCc5ccc(Cl)c(Cl)c5)CO[C@@H]43)c2n1  IC50 (HepG2; cytotoxicity; 24 h): 13.2 µg/mL
O=c1cccccc1Cl  CC50 (HepDES19; cell growth or viability, MTS; 72 h): 57 µM
N=C(N)NCCC[C@@H]1NC(=O)[C@H](CCCNC(=N)N)NC(=O)[C@@H](Cc2ccc3ccccc3c2)NC(=O)[C@H](Cc2c[nH]c3ccccc23)NC(=O)[C@@H](Cc2ccc3ccccc3c2)NC(=O)[C@@H](CCCNC(=N)N)NC(=O)[C@@H](CCCNC(=N)N)NC1=O  HC50 (human red blood cells; haemolysis; 2 h, 37 °C): 255 µg/mL
CCCCCC(=O)Oc1c(C)c(OC)c2c(c1C)OC(=O)[C@@H](CCCC)[C@]2(O)/C=C/c1ccccc1 (relative stereo)  IC50 (normal human liver cell line; cytotoxicity, SRB; 72 h): > 50 µM
Cc1ccc(/C=C/C(=O)c2ccccc(=O)c2O)cc1  CC50 (HepDES19; cell growth or viability, MTS; 72 h): 20 µM
CN1CCCNC(=O)c2cccc(c2)C(=O)NCCCN(C)CCCNc2cccc3c2C(=O)c2cccc(c2C3=O)NCCC1  viability (Ca9-22; cell growth or viability, CCK-8; 5 µM, 48 h): 14.1%
O=C(O)c1ccc(Nc2c(-c3ccccc3)nc3ccc(CON=Cc4sccc4-n4cccc4)cn23)cc1 (mixture of isomers)  inhibition (TDP1; enzyme activity, inhibitor; 100 µM, unpurified compound): -6.2%
COc1cc(C)c(C(=O)c2cccs2)cc(O)c1=O  CC50 (HepDES19; cell growth or viability, MTS; 72 h): 100 µM
O=CCNCCOn1c(=O)n(OCCNCCO)c(=O)n(OCCNCCOn2c(=O)n(OCCNCCO)c(=O)n(OCCNCCO)c2=O)c1=O  viability (HUVEC; cell growth or viability, MTT; 100 µg/mL, 48 h): 22.2%
Cc1cccnc1-c1csc(C(=O)Nc2cc(Cl)cc(NS(C)(=O)=O)c2)c1  CC50 (HUASMC; viability, CellTiter-Glo; 10 days): > 10 µM
COc1cccc2c1cc1c3c(cc4c(c32)OCO4)[C@@H]2c3c4c5c(cc6c(c5c5cccc(OC)c35)OCO6)CCN4[C@@H]2N1C (racemic)  inhibition (MRC-5; cytotoxicity, MTT; 50 µg/mL, 48 h): < 50%
N=C(N)NCCC[C@@H]1NC(=O)[C@H](CCCNC(=N)N)NC(=O)[C@@H](CCCNC(=N)N)NC(=O)[C@@H](CCCNC(=N)N)NC(=O)[C@H](C(c2ccccc2)c2ccccc2)NC(=O)[C@H](Cc2c[nH]c3ccccc23)NC(=O)[C@H](C(c2ccccc2)c2ccccc2)NC1=O  HC50 (human red blood cells; haemolysis; 2 h, 37 °C): 260 µg/mL
COC1C=COC2(C)Oc3c(C)c(O)c4c(c3C2=O)C2=NC3(CCN(CC(C)C)CC3)NC2=C(NC(=O)C(C)=CC=CC(C)C(O)C(C)C(O)C(C)C(OC(=O)Nc2cnccn2)C1C)C4=O (stereo not drawn)  intracellular/extracellular ratio (THP-1 derived macrophages; 30 min; baseline: intracellular over extracellular): 31.4
